{"data": "Assay results of several laboratories", "aacA4": "Aminoglycoside N(6')-acetyltransferase type 1 (aacA4, Klebsiella pneumoniae, UniProt P19650)", "Inosine-5'-monophosphate dehydrogenase": "Inosine-5'-monophosphate dehydrogenase (Cryptosporidium parvum, UniProt Q8T6T2)", "VIM-2": "Metallo-beta-lactamase VIM-2 (VIM-2, Escherichia coli, UniProt Q5U7L7)", "Leucine--tRNA ligase": "Leucine--tRNA ligase (Staphylococcus aureus, UniProt Q2FXH2)", "note": "Compare with care: the assays were run in different laboratories. ± gives the spread as reported."}
{"SMILES": "CC(C)C[C@H](NC(=O)[C@H](Cc1ccccc1)C[C@@H](O)[C@H](Cc1ccccc1)NC(=O)OC(C)(C)C)C(=O)N[C@@H](Cc1ccc(C(=O)c2ccccc2)cc1)C(=O)NCCCCCNC(=O)CCCC[C@@H]1SC[C@@H]2NC(=O)N[C@@H]21", "target": "Presenilin-1, γ-secretase complex (PSEN1, Homo sapiens, UniProt P49768)", "assay": "Aβ42 production", "test system": "HeLa cell membranes", "conditions": "together with: recombinant APP substrate", "quantity": "IC50", "value": "0.3 nM"}
{"SMILES": "Cc1ccc(N(C)c2cc(N(C)C3CC3)n3ncc(C#N)c3n2)cc1NC(=O)C1CC1", "target": "CSNK2A2 (Homo sapiens, UniProt P19784)", "assay": "inhibitor", "quantity": "IC50", "value": "> 10000 nM"}
{"SMILES": "CC(C)CC(NC(=O)C1OC1C(=O)O)C(=O)NCCCCN=C(N)N (stereo not drawn)", "target": "Cathepsin K (CTSK, Homo sapiens, UniProt P43235)", "assay": "enzyme activity, inhibitor", "quantity": "IC50", "value": "1.45 nM"}
{"SMILES": "C[C@H](CS)C(=O)N[C@@H](Cc1c[nH]c2ccccc12)C(=O)O", "target": "Metallo-beta-lactamase type 2 (Aeromonas hydrophila, UniProt P26918)", "assay": "enzyme activity, inhibitor", "quantity": "IC50", "value": "> 400000 nM"}
{"SMILES": "CCCC[C@H](CN)NC[C@@H]1CCCN1C[C@@H](CO)NC[C@@H](NCCC12CC3CC(CC(C3)C1)C2)c1ccccc1", "target": "aacA4", "assay": "acetyltransferase activity, inhibitor", "quantity": "IC50", "value": "10700 nM"}
{"SMILES": "CC(Oc1ccccc1)C(=O)Nc1ccc(Cl)cc1 (stereo not drawn)", "target": "Inosine-5'-monophosphate dehydrogenase", "assay": "enzyme activity, inhibitor", "conditions": "corrected for open enzyme conformation", "quantity": "IC50", "value": "660 nM"}
{"SMILES": "CC(C)OCc1nn[nH]c1CNS(=O)(=O)c1ccccc1", "target": "VIM-2", "assay": "enzyme activity, inhibitor", "conditions": "together with: nitrocefin", "quantity": "IC50", "value": "850 ± 70 nM"}
{"SMILES": "CCCOC(=O)N[C@H](C(=O)NCCCN[C@H](C(N)=O)[C@H](O[C@@H]1O[C@H](CN)[C@@H](O)[C@H]1OC)[C@H]1O[C@@H](n2ccc(=O)[nH]c2=O)[C@H](O)[C@@H]1O)[C@@H](OC(=O)CCCCCCCCCCCCN(O)C(=N)N)C(C)C", "target": "UDP-N-acetylglucosamine--dolichyl-phosphate N-acetylglucosaminephosphotransferase (Homo sapiens, UniProt Q9H3H5)", "assay": "enzyme activity, inhibitor", "quantity": "IC50", "value": "250 ± 95 nM"}
{"SMILES": "CNC(=O)COCC(=O)NCCCCCCCNC(=O)COCC(=O)Nc1ccc([C@H](CCN2[C@@H]3CC[C@H]2C[C@H](n2c(C)nnc2C(C)C)C3)NC(=O)C2CCC(F)(F)CC2)cc1", "target": "CCR5 (Homo sapiens, UniProt P51681)", "assay": "calcium mobilization, antagonist", "test system": "MOLT-4 cells expressing CCR5", "conditions": "together with: RANTES (CCL5)", "quantity": "IC50", "value": "833 ± 150 nM"}
{"SMILES": "Nc1nc(N)c2c(Cl)c(CNc3ccc(C(=O)O)cc3)ccc2n1", "target": "DHFR (Homo sapiens, UniProt P00374)", "assay": "enzyme activity, inhibitor", "quantity": "IC50", "value": "7.6 nM"}
{"SMILES": "CC1CCN(C(=O)n2ncc(C(O)(c3ccccc3)c3ccccc3)n2)CC1", "target": "Monoacylglycerol lipase-like protein (Plasmodium falciparum, UniProt Q8IJ22)", "assay": "enzyme activity, inhibitor", "conditions": "together with: 4-methylumbelliferyl octanoate 10 µM", "quantity": "IC50", "value": "15.4 nM"}
{"SMILES": "O=C(Cn1c(-c2cscn2)nc2ccccc21)Nc1ccc(Br)cc1", "target": "Inosine-5'-monophosphate dehydrogenase", "assay": "enzyme activity, inhibitor, NADH fluorescence", "test system": "recombinant enzyme", "quantity": "IC50", "value": "60 ± 30 nM"}
{"SMILES": "C=CC(=O)Nc1cc(-c2cn(C3CCCC3)c3ncnc(N)c23)ccc1Oc1ccccc1", "target": "ERBB3 (Homo sapiens, UniProt P21860)", "assay": "ATP-site binding, LanthaScreen TR-FRET", "conditions": "3 h", "quantity": "IC50", "value": "286 nM"}
{"SMILES": "C=CC(=O)Nc1cc(-n2c(=O)ccc3cnc4ccc(-c5cn[nH]c5)cc4c32)ccc1C", "target": "BTK (Homo sapiens, UniProt Q06187)", "assay": "enzyme activity, inhibitor, Invitrogen SelectScreen", "quantity": "IC50", "value": "8 nM"}
{"SMILES": "COCCCn1nc(-c2ccc(CC(=O)Nc3cccc(F)c3)cc2)c2c(N)ncnc21", "target": "RET (Homo sapiens, UniProt P07949)", "assay": "inhibitor", "quantity": "IC50", "value": "250 ± 70 nM"}
{"SMILES": "CC[C@H](C)[C@H](NC(=O)[C@H](Cc1cnc[nH]1)NC(=O)[C@H](CCSC)NC(=O)[C@H](CCCNC(=N)N)NC(=O)[C@H](CO)NC(=O)CNC(=O)[C@H](Cc1ccccc1)NC(=O)[C@H](CCCCN)NC(=O)[C@H](CO)NC(=O)[C@H](Cc1ccccc1)NC(=O)[C@H](CC(C)C)NC(=O)[C@@H]1CCCN1C(=O)[C@H](CC(C)C)NC(=O)[C@H](Cc1ccccc1)NC(=O)[C@H](CCC(=O)O)NC(=O)[C@H](C)NC(=O)[C@H](Cc1ccccc1)NC(=O)[C@@H](N)C(C)C)C(=O)N[C@@H](CC(C)C)C(=O)N[C@@H](CCCCN)C(=O)O", "target": "Apical membrane antigen 1, with RON2 peptide (Plasmodium falciparum, UniProt Q7KQK5)", "assay": "AMA1-RON2L binding, inhibitor, AlphaScreen", "conditions": "AMA1 3D7 allele", "quantity": "IC50", "value": "~700 nM"}
{"SMILES": "O=S(=O)(Nc1ccc2c(c1)B(O)OC2)c1ccccc1", "target": "Leucine--tRNA ligase", "quantity": "IC50", "value": "94000 ± 2000 nM"}
{"SMILES": "COC(C)(C)Cn1nc(-c2ccc3cc(OC4CC4)ccc3c2)c2c(N)ncnc21", "target": "Calmodulin-domain protein kinase 1, putative (Cryptosporidium parvum, UniProt A3FQ16)", "assay": "enzyme activity, inhibitor, Kinase-Glo", "conditions": "together with: syntide-2", "quantity": "IC50", "value": "1330 nM"}
{"SMILES": "COc1cccc(-c2cc(Nc3c(Nc4ccc(C(F)(F)F)cc4)c(=O)c3=O)ccc2OC)c1", "target": "Heat shock protein HSP 90-alpha, with Aha1 (HSP90AA1, Homo sapiens, UniProt P07900)", "assay": "Hsp90-Aha1 interaction, inhibitor, AlphaScreen", "quantity": "IC50", "value": "2660 ± 1920 nM"}
{"SMILES": "CNC(=O)[C@@H]1Cc2c([nH]c3ccccc23)[C@@H](c2ccc(F)cc2Cl)N1", "target": "2-C-methyl-D-erythritol 4-phosphate cytidylyltransferase (Plasmodium falciparum, UniProt Q8I273)", "assay": "enzyme activity, pyrophosphate fluorimetric", "conditions": "together with: 60 nM enzyme", "quantity": "IC50", "value": "278 ± 27 nM"}
{"SMILES": "[N-]=[N+]=CC(=O)[C@H](Cc1cccc([N+](=O)[O-])c1)NC(=O)OCc1ccccc1", "target": "Caspase-3 (CASP3, Homo sapiens, UniProt P42574)", "assay": "enzyme activity, inhibitor", "conditions": "together with: Ac-DEVD-AMAC substrate", "quantity": "IC50", "value": "> 40000 nM"}
{"SMILES": "COC(C)(C)Cn1cc(-c2ccc3cc(OC4CC4)ccc3c2)c2c(N)ncnc21", "target": "CDPK1 (Toxoplasma gondii, UniProt Q9BJF5)", "assay": "enzyme activity, inhibitor, Kinase-Glo", "conditions": "together with: syntide-2", "quantity": "IC50", "value": "15 nM"}
{"SMILES": "O=S(=O)(NCc1[nH]nnc1CNC1CCCCC1)c1ccccc1", "target": "VIM-2", "assay": "enzyme activity, inhibitor", "conditions": "together with: nitrocefin", "quantity": "IC50", "value": "130 ± 10 nM"}
{"SMILES": "CN(C)c1cccc(Oc2cnc(Nc3ccccc3)nc2)c1", "target": "Amyloid-beta precursor protein, Aβ42 with fibrinogen (APP, Homo sapiens, UniProt P05067)", "assay": "AlphaLISA", "quantity": "IC50", "value": "1670 nM"}
{"SMILES": "[2H]c1c([2H])c(S(=O)(=O)N2CCC([2H])(C(=O)Nc3ccc4cc(C(=O)O)ccc4c3)CC2)c(C([2H])([2H])[2H])c([2H])c1C([2H])([2H])[2H]", "target": "EPHX2 (Homo sapiens, UniProt P34913)", "conditions": "pH 7.0, 30 °C, together with: CMNPC substrate 5 µM", "quantity": "IC50", "value": "58 nM"}
{"SMILES": "O=[N+]([O-])c1ccc(S(=O)(=O)Nc2ccc3c(c2)B(O)OC3)cc1F", "target": "Leucine--tRNA ligase", "quantity": "IC50", "value": "> 100000 nM"}
{"SMILES": "NC[C@@H](NC[C@@H]1CCCN1C[C@@H](CO)NC[C@@H](NCCC1CC2CCC1C2)c1ccccc1)c1ccccc1 (stereo partly drawn)", "target": "aacA4", "assay": "acetyltransferase activity, inhibitor", "quantity": "IC50", "value": "4900 nM"}
{"SMILES": "C1=C(CCNCc2ccccc2)CCCC1", "target": "Phenylalanine--tRNA ligase, chloroplastic/mitochondrial (Arabidopsis thaliana, UniProt Q94K73)", "assay": "phenylalanine activation, inhibitor", "quantity": "IC50", "value": "> 300 µg/mL"}
{"SMILES": "O=C(Cn1c(-c2nccs2)nc2ccccc21)Nc1ccc(Cl)cc1", "target": "Inosine-5'-monophosphate dehydrogenase", "assay": "enzyme activity, inhibitor, NADH fluorescence", "test system": "recombinant enzyme", "quantity": "IC50", "value": "30 ± 10 nM"}
{"SMILES": "NCc1ccc(-c2ncc(OCC3CCNCC3)nc2-c2ccc(-c3cn[nH]c3)cc2)cc1", "target": "Genome polyprotein, NS2B-NS3 protease (West Nile virus, UniProt P06935)", "assay": "enzyme activity, inhibitor", "conditions": "NS2B-NS3 protease", "quantity": "IC50", "value": "120 ± 20 nM"}
{"SMILES": "CCCC[C@H](CN)NC[C@@H]1CCCN1C[C@@H](CO)NC[C@@H](NCCc1ccc(-c2ccccc2)cc1)c1ccccc1", "target": "aacA4", "assay": "acetyltransferase activity, inhibitor", "quantity": "IC50", "value": "12400 nM"}
{"SMILES": "CCCCOCc1nn[nH]c1CNS(=O)(=O)c1ccc(Cl)cc1", "target": "VIM-2", "assay": "enzyme activity, inhibitor", "conditions": "together with: nitrocefin", "quantity": "IC50", "value": "18900 ± 6000 nM"}
{"SMILES": "c1ccc(-c2ccc(C(c3ccccc3)n3ccnc3)cc2)cc1 (stereo not drawn)", "target": "cyp121 (Mycobacterium tuberculosis, UniProt P9WPP7)", "assay": "binding", "quantity": "Kd", "value": "1400 ± 220 nM"}
{"note": "A few entries again:"}
{"SMILES": "CCCC[C@H](CN)NC[C@@H]1CCCN1C[C@@H](CO)NC[C@@H](NCCC12CC3CC(CC(C3)C1)C2)c1ccccc1", "target": "aacA4", "assay": "acetyltransferase activity, inhibitor", "quantity": "IC50", "value": "10700 nM"}
{"SMILES": "CC(Oc1ccccc1)C(=O)Nc1ccc(Cl)cc1 (stereo not drawn)", "target": "Inosine-5'-monophosphate dehydrogenase", "assay": "enzyme activity, inhibitor", "conditions": "corrected for open enzyme conformation", "quantity": "IC50", "value": "660 nM"}
{"SMILES": "CC(C)OCc1nn[nH]c1CNS(=O)(=O)c1ccccc1", "target": "VIM-2", "assay": "enzyme activity, inhibitor", "conditions": "together with: nitrocefin", "quantity": "IC50", "value": "850 ± 70 nM"}
{"SMILES": "CCCOC(=O)N[C@H](C(=O)NCCCN[C@H](C(N)=O)[C@H](O[C@@H]1O[C@H](CN)[C@@H](O)[C@H]1OC)[C@H]1O[C@@H](n2ccc(=O)[nH]c2=O)[C@H](O)[C@@H]1O)[C@@H](OC(=O)CCCCCCCCCCCCN(O)C(=N)N)C(C)C", "target": "UDP-N-acetylglucosamine--dolichyl-phosphate N-acetylglucosaminephosphotransferase (Homo sapiens, UniProt Q9H3H5)", "assay": "enzyme activity, inhibitor", "quantity": "IC50", "value": "250 ± 95 nM"}
{"SMILES": "CNC(=O)COCC(=O)NCCCCCCCNC(=O)COCC(=O)Nc1ccc([C@H](CCN2[C@@H]3CC[C@H]2C[C@H](n2c(C)nnc2C(C)C)C3)NC(=O)C2CCC(F)(F)CC2)cc1", "target": "CCR5 (Homo sapiens, UniProt P51681)", "assay": "calcium mobilization, antagonist", "test system": "MOLT-4 cells expressing CCR5", "conditions": "together with: RANTES (CCL5)", "quantity": "IC50", "value": "833 ± 150 nM"}
